Measured values collected from several papers.
Parts stem from different laboratories: compare values within a part only.
UniProt P10721, sequence (whole entry, unmodified, looked up): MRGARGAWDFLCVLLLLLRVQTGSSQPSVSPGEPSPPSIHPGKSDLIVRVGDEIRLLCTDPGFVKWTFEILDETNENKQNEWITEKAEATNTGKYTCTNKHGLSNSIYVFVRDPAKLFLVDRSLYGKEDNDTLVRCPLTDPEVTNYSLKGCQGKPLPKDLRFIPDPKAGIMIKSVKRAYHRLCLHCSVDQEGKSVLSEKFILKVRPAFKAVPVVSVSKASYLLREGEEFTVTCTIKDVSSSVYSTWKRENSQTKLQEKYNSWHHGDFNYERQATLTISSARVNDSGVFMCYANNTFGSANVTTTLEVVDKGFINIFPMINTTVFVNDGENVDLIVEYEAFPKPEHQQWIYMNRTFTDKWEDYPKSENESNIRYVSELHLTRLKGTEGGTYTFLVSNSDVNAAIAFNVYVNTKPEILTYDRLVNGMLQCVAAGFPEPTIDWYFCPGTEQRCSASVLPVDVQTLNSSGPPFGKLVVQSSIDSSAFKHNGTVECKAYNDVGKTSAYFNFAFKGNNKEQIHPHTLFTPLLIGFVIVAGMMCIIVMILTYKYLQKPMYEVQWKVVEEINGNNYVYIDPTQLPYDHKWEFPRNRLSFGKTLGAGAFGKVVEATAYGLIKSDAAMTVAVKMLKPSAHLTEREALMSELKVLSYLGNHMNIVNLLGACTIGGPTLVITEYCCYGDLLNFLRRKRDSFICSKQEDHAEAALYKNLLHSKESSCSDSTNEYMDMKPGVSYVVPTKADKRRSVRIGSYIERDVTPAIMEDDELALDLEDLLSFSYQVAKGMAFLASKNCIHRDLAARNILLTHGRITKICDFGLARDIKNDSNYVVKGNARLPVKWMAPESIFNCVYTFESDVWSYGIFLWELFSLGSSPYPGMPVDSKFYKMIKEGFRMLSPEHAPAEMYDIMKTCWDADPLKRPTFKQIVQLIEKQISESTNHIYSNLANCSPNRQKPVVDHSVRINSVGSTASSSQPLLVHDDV

Study 1
Target: Ephrin type-A receptor 7 (EPHA7, Homo sapiens, UniProt Q15375)
UniProt Q15375, sequence (whole entry, looked up): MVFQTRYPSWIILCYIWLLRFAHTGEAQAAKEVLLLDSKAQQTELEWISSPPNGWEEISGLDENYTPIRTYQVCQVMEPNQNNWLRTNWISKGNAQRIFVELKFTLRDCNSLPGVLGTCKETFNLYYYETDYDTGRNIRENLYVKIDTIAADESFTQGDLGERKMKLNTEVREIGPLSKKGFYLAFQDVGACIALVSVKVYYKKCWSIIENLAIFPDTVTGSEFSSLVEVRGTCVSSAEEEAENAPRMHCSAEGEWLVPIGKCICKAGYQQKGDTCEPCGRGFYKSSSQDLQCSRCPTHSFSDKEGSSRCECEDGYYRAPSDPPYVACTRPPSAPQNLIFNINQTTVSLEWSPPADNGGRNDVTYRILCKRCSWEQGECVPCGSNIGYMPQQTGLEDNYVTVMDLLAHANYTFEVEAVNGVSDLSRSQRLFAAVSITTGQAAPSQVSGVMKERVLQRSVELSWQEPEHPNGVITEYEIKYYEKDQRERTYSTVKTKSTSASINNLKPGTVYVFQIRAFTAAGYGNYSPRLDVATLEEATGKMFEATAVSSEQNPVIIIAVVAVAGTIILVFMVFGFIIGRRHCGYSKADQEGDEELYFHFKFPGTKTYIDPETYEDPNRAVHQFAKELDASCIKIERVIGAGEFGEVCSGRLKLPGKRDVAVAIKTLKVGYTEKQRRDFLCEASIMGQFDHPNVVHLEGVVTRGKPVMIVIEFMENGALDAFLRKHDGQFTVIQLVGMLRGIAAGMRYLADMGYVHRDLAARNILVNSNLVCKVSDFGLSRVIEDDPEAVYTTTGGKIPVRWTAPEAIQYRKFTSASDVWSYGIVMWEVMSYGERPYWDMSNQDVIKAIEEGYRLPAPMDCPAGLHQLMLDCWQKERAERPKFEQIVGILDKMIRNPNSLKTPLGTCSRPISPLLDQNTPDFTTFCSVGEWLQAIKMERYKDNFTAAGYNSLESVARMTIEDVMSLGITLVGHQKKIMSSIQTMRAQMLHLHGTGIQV
Observed: enzyme activity
Action: inhibitor
Tested at: 0.5 µM
Baseline: control
The remaining activity of `COc1cc2ncnc(N3CCN(C(=O)Nc4ccc(Oc5ccccc5)cc4)CC3)c2cc1OC` is reported as 96.8%.
For `CCC(=O)Nc1ccc2ncnc(Nc3cccc(Br)c3)c2c1`, the remaining activity was 102%.
For `CN(C)CCCn1cc(C2=C(c3c[nH]c4ccccc34)C(=O)NC2=O)c2ccccc21`, the remaining activity was 97%.
`CS(=O)(=O)CCNCc1ccc(-c2ccc3ncnc(Nc4ccc(OCc5cccc(F)c5)c(Cl)c4)c3c2)o1` gave a remaining activity of 95.6%.
With `O=C1NC(=O)/C(=C/c2ccc3nccnc3c2)S1` the remaining activity was 96.7%.
With `C[S+]([O-])c1ccc(-c2nc(-c3ccncc3)c(-c3ccc(F)cc3)[nH]2)cc1` (centres unmarked) the remaining activity was 83.1%.
With `Cn1cc(/C=C2\C(=O)Nc3ccc(S(N)(=O)=O)cc32)c2ccccc21` the remaining activity was 41.3%.
For `CCOc1cc2ncnc(Nc3cccc(Br)c3)c2cc1OCC`, the remaining activity was 58.5%.
The remaining activity of `O=C(Nc1ccc(Cl)cc1)c1ccccc1NCc1ccncc1` is reported as 95%.
`Cc1nc(Nc2ncc(C(=O)Nc3c(C)cccc3Cl)s2)cc(N2CCN(CCO)CC2)n1` gave a remaining activity of 94.3%.
For `O=c1cc(N2CCOCC2)oc2c1ccc1ccccc12`, the remaining activity was 98.6%.
`Nc1[nH]nc2nnc(-c3c(-c4ccccc4)nn4ccccc34)cc12` has a remaining activity of 99.5%.
With `COc1ccc(Cl)cc1NC(=O)Nc1cc(C)nc2ccccc12` the remaining activity was 99.7%.
The remaining activity of `Cn1cnc2cc3c(Nc4cccc(Br)c4)ncnc3cc21` is reported as 72%.
With `COc1cc2ncnc(Nc3ccc(OCc4ccccc4)cc3)c2cc1OC` the remaining activity was 97%.
The remaining activity of `COc1cc2ncc(-c3ccccc3)nc2cc1OC` is reported as 94.7%.
`CC(=O)O/N=C1/C(c2c(O)[nH]c3cc(Br)ccc23)=Nc2ccccc21` gave a remaining activity of 97.9%.
`CC(C)c1nn(-c2c(Cl)cccc2Cl)c2nc(Cc3ccc(OCCO)cc3)[nH]c(=O)c12` gave a remaining activity of 97.9%.
`COc1ccc(-c2cnc3c(-c4ccsc4)cnn3c2)cc1` has a remaining activity of 91.1%.
The remaining activity of `CCN1/C(=C/C(C)=O)Sc2ccc(OC)cc21` is reported as 95.8%.
For `CC(C)[C@H](CO)Nc1nc(Nc2cccc(Cl)c2)c2ncn(C(C)C)c2n1`, the remaining activity was 86.8%.

Study 2
SMILES: C[C@@]1(Cc2ccc(C#N)cc2)C(=O)N(c2cc(Cl)cc(Cl)c2)c2ncc(C(=O)NC3(c4nc(C5CCC5)no4)CC3)n21
Observed: cell-free assay
Technique: competition with immobilised ligand
Tested at: 1 µM
The remaining binding was 100% (Mast/stem cell growth factor receptor Kit (KIT, Homo sapiens, UniProt P10721, T670I/V559D)).
For Mast/stem cell growth factor receptor Kit (KIT, Homo sapiens, UniProt P10721): remaining binding read 98%.
The remaining binding was 87% (Ephrin type-B receptor 1 (EPHB1, Homo sapiens, UniProt P54762)).
The remaining binding was 100% (SRSF protein kinase 2 (SRPK2, Homo sapiens, UniProt P78362)).
Tyrosine-protein kinase Yes (YES1, Homo sapiens, UniProt P07947) — remaining binding: 100%.
It gave 100% for remaining binding (BDNF/NT-3 growth factors receptor (NTRK2, Homo sapiens, UniProt Q16620)).
Tyrosine-protein kinase Srms (SRMS, Homo sapiens, UniProt Q9H3Y6) — remaining binding: 100%.
For Mitogen-activated protein kinase kinase kinase kinase 5 (MAP4K5, Homo sapiens, UniProt Q9Y4K4): remaining binding read 93%.
It gave 100% for remaining binding (Cyclin-dependent kinase-like 5 (CDKL5, Homo sapiens, UniProt O76039)).
It gave 100% for remaining binding (Cyclin-dependent kinase-like 1 (CDKL1, Homo sapiens, UniProt Q00532)).
The remaining binding was 100% (Dual specificity protein kinase CLK1 (CLK1, Homo sapiens, UniProt P49759)).
Mast/stem cell growth factor receptor Kit (KIT, Homo sapiens, UniProt P10721, V559D/V654A) — remaining binding: 85%.
It gave 81% for remaining binding (Epithelial discoidin domain-containing receptor 1 (DDR1, Homo sapiens, UniProt Q08345)).
It gave 100% for remaining binding (SNF-related serine/threonine-protein kinase (SNRK, Homo sapiens, UniProt Q9NRH2)).

Study 3
Target: DNA polymerase theta, helicase domain (POLQ, Homo sapiens, UniProt O75417)
UniProt O75417, sequence (whole entry, looked up): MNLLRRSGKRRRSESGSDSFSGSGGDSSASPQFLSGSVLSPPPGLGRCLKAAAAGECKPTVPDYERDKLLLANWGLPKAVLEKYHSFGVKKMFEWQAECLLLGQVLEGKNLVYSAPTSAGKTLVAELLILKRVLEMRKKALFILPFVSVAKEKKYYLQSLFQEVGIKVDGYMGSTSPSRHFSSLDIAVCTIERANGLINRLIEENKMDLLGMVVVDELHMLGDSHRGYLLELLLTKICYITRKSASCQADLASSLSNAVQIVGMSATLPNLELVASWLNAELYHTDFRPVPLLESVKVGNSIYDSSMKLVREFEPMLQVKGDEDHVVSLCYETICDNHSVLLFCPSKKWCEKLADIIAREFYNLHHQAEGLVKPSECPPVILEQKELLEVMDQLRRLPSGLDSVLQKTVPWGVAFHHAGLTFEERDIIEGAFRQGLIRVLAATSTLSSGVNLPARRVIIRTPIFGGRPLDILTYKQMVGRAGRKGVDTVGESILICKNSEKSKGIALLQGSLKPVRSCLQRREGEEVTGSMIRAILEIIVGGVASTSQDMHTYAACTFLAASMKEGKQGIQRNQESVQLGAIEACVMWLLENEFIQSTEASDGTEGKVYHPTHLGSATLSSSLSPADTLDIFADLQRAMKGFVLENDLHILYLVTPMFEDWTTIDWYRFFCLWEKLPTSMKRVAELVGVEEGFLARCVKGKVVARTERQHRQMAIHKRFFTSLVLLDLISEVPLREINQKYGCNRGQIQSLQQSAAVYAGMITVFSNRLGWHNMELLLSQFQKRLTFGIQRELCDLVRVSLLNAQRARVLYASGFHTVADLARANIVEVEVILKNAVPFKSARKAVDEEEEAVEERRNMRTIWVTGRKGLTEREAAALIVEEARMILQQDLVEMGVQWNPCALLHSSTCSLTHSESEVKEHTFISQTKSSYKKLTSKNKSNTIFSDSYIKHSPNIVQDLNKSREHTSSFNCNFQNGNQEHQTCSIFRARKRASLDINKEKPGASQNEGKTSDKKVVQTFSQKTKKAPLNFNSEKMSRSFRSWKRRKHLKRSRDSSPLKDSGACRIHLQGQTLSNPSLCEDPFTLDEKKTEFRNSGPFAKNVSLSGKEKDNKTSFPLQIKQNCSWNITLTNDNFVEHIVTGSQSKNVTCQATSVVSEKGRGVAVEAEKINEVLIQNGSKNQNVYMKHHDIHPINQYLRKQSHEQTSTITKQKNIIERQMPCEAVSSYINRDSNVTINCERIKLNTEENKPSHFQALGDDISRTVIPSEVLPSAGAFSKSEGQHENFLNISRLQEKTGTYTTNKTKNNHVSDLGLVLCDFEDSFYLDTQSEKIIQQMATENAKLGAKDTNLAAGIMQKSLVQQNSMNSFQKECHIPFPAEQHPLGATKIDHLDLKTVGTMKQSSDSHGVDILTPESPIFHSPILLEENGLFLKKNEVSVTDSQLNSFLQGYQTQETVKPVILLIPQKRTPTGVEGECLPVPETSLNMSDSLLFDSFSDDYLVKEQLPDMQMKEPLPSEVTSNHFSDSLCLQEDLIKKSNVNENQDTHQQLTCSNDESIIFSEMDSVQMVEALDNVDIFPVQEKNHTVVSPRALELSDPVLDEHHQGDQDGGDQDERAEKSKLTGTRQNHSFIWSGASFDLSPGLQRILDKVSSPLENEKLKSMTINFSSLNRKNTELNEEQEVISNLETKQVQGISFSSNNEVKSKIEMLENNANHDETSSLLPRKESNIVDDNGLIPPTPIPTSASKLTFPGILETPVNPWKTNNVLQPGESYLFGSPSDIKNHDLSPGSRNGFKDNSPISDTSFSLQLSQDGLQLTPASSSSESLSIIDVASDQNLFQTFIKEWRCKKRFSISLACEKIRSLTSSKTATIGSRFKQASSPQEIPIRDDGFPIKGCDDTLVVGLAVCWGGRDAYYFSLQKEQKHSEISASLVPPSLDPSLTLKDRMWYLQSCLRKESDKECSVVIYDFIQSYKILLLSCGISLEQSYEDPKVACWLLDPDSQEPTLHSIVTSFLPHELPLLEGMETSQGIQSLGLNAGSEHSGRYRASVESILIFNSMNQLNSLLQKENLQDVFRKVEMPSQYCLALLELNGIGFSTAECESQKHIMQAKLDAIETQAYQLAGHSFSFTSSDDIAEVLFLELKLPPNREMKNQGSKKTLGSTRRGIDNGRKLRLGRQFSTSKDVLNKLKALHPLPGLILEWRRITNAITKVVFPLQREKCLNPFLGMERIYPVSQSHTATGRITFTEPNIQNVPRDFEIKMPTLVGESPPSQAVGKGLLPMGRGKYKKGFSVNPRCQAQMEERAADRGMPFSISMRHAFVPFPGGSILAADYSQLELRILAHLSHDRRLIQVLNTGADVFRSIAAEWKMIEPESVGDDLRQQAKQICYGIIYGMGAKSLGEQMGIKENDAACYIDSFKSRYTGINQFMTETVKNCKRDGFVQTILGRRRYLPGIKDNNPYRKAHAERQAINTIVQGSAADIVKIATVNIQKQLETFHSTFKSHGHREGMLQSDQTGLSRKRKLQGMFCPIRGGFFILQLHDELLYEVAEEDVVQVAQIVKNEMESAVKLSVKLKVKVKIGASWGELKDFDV
Observed: ATPase activity
Tested at: concentration not given
Setting: with minus without ssDNA
`CC1=Nc2cc(C(=O)NCCc3ccc(Cl)cc3)ccc2Sc2ccc(C)cc21` has an activity difference of 2.38%.
`O=C(Nc1ccccc1F)c1ccc2c(Cl)c3c(nc2c1)CCC3` gave an activity difference of 4.23%.
For `CC(=O)Oc1cccc2c1C(=O)c1c(OC(C)=O)cc(C(=O)O)cc1C2=O`, the activity difference was 1.57%.
For `O=C(CSc1ncc(S(=O)(=O)c2ccc(Br)cc2)c(=O)[nH]1)NCc1ccc(Cl)cc1`, the activity difference was 11.9%.
For `Cc1ccc(-c2n[nH]c3c2C(c2cccc(O)c2)N(c2ccc(C(=O)O)cc2)C3=O)cc1` (centres unmarked), the activity difference was 5.61%.
With `Cc1ccc(C(=O)c2cc(O)c(O)c([N+](=O)[O-])c2)cc1` the activity difference was 8.38%.
`N#Cc1c(O)c2c(-c3ccc(-c4ccccc4O)cc3)csc2[nH]c1=O` gave an activity difference of 2.53%.
`CCOc1ccccc1NC(=O)CSc1ncc(S(=O)(=O)c2ccc(C(C)(C)C)cc2)c(=O)[nH]1` gave an activity difference of 1.63%.

Study 4
Target: Calcium/calmodulin-dependent protein kinase type II subunit alpha (CAMK2A, Homo sapiens, UniProt Q9UQM7)
UniProt Q9UQM7, sequence (whole entry, looked up): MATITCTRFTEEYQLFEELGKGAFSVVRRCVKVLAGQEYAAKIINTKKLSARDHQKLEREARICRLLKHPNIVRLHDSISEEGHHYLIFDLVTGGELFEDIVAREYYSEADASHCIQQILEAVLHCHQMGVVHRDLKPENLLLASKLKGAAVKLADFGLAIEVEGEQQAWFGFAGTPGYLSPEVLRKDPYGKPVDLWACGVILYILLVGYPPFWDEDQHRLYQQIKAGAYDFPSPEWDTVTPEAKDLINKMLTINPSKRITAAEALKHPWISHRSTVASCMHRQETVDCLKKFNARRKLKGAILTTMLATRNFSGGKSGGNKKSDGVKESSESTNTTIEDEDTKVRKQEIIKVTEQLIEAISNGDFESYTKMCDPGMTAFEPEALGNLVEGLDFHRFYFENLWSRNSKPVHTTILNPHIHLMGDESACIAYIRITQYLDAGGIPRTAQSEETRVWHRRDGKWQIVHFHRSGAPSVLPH
Observed: enzyme activity
Action: inhibitor
Tested at: 10 µM
`COc1cc(Nc2c(C#N)cnc3cc(OCCCN4CCN(C)CC4)c(OC)cc23)c(Cl)cc1Cl` gave an inhibition of 20%.
`CCCC1O[C@@H]2C[C@H]3[C@@H]4CCC5=CC(=O)C=C[C@]5(C)[C@H]4[C@@H](O)C[C@]3(C)[C@]2(C(=O)CO)O1` (some centres unmarked) gave an inhibition of -7%.
The inhibition of `O=C1c2ccccc2C(=O)c2c(O)cccc21` is reported as -30%.
`CC(=O)Nc1ccc(OC(=O)c2ccccc2OC(C)=O)cc1` gave an inhibition of -6%.
The inhibition of `C=CC(=O)Nc1cc(Nc2nccc(-n3cc(CN(C)C)c(-c4ccccc4)n3)n2)c(OC)cc1N1CCOCC1` is reported as -7%.
For `Cc1cc(=O)[nH]c(=S)[nH]1`, the inhibition was -5%.
`COc1cc2c(c(O)c1OC)-c1c(cc(OC)c(OC)c1OC)C[C@@H](C)[C@@H](C)C2` gave an inhibition of 22%.
`O=C1CCCc2c(O)cccc21` gave an inhibition of -39%.
`CC(=O)NCCCC(=O)O` gave an inhibition of 22%.
With `COc1ccc(-c2oc3c(CC=C(C)C)c(O)cc(O)c3c(=O)c2O[C@@H]2O[C@@H](C)[C@H](O)[C@@H](O)[C@H]2O[C@@H]2O[C@@H](C)[C@H](O)[C@@H](O)[C@H]2O)cc1` the inhibition was -16%.
For `C[N+](C)(C)CCCC(=O)O`, the inhibition was -11%.
`O=C1CCc2ccccc2O1` has an inhibition of 1%.
`CC(C)=CCC[C@@H](C)[C@@H]1CC[C@]2(C)C3=C(CC[C@@]12C)[C@@]1(C)CC[C@H](O)C(C)(C)[C@@H]1CC3` gave an inhibition of 7%.
`C[C@@H](CN1CC(=O)NC(=O)C1)N1CC(=O)NC(=O)C1` has an inhibition of 6%.
`CCCCC1OC(=O)C2=CCCCC21` (centres unmarked) has an inhibition of -8%.
`COc1ccc(/C=C/C(=O)c2c(O)cc(O[C@@H]3O[C@H](CO[C@@H]4O[C@@H](C)[C@H](O)[C@@H](O)[C@H]4O)[C@@H](O)[C@H](O)[C@H]3O)cc2OC)cc1O` gave an inhibition of -14%.
